Measurements gathered from unrelated publications.
Each line is one published result; not all experiments were run side by side. Numbers after ± are the reported error.

O=C(c1cccnc1-c1ccncc1)N1CCC(O)(Cc2ccccc2)CC1  Cmax (healthy Japanese adults, plasma; oral, 300 mg twice daily, day 21): 2060 ng/mL
C[C@@](Cc1ccc(O)c(O)c1)(NN)C(=O)O  Cmax (Parkinson's disease patients, plasma; oral, high levodopa Cmax subgroup (≥9 µmol/L), median): 310 nM
COc1nnc2ccc(N3CCC(c4ccc(OCCN5CCN(C)C(=O)[C@H]5C)cc4)CC3)nn12  Cmax (patients, plasma; oral, 10 mg twice daily, single dose, monotherapy): 53 nM
CCCCCCCOc1ccc(CCC(N)(CO)CO)cc1C(F)(F)F.Cl  Cmax (healthy men, plasma; oral, 0.75 mg, day 1): 0.337 ng/mL
CCNC(=O)[C@@H]1CCCN1C(=O)[C@H](CCCNC(=N)N)NC(=O)[C@H](CC(C)C)NC(=O)[C@@H](CC(C)C)NC(=O)[C@H](Cc1ccc(O)cc1)NC(=O)[C@H](CO)NC(=O)[C@H](Cc1c[nH]c2ccccc12)NC(=O)[C@H](Cc1c[nH]cn1)NC(=O)[C@@H]1CCC(=O)N1  Cmax (healthy premenopausal women, plasma; intramuscular, 3.75 mg monthly depot, day 1): 17.5 ± 2.7 ng/mL
CCc1nc(C(N)=O)c(Nc2ccc(N3CCC(N4CCN(C)CC4)CC3)c(OC)c2)nc1NC1CCOCC1  Cmax (patients, plasma; oral, 40 mg once daily, cycle 1 day 15, median): 106 ng/mL
N[C@@H]1c2ccccc2OC12CCN(c1cnc3c(N4CCCc5ncccc54)n[nH]c3n1)CC2  Cmax (advanced metastatic solid tumour patients, plasma; oral, 75 mg once daily, cycle 1 day 15, geometric mean): 1400 ng/mL
C[C@H](NC(=O)/C(C#N)=C/c1cccc(Br)n1)c1ccccc1  Cmax (LC-MS/MS; patients, plasma; oral, 4 mg/kg, cycle 1 day 8): 23.6 ng/mL
COc1c(O)cc(C(=O)O)cc1O  Cmax (broiler chickens, serum; oral, in feed, 2000 mg/kg feed, 24 h, corn diet, no tannins): 100 ± 40 nM
OC[C@H]1O[C@@H](c2ccc(F)c(Cc3cc4ccccc4s3)c2)[C@H](O)[C@@H](O)[C@@H]1O  Cmax (Japanese type 2 diabetes patients, plasma; oral, 100 mg/day, day 1): 2300 ± 737 ng/mL

Repeated from above:
CCNC(=O)[C@@H]1CCCN1C(=O)[C@H](CCCNC(=N)N)NC(=O)[C@H](CC(C)C)NC(=O)[C@@H](CC(C)C)NC(=O)[C@H](Cc1ccc(O)cc1)NC(=O)[C@H](CO)NC(=O)[C@H](Cc1c[nH]c2ccccc12)NC(=O)[C@H](Cc1c[nH]cn1)NC(=O)[C@@H]1CCC(=O)N1  Cmax (healthy premenopausal women, plasma; intramuscular, 3.75 mg monthly depot, day 1): 17.5 ± 2.7 ng/mL
CCc1nc(C(N)=O)c(Nc2ccc(N3CCC(N4CCN(C)CC4)CC3)c(OC)c2)nc1NC1CCOCC1  Cmax (patients, plasma; oral, 40 mg once daily, cycle 1 day 15, median): 106 ng/mL
